Assay results pooled from the literature.
Each line is one published result; not all experiments were run side by side. ± gives the spread as reported. No end group written: not given here.
CHRM1: Muscarinic acetylcholine receptor M1 (CHRM1, Homo sapiens, UniProt P11229)
Sequence of UniProt P11229 (whole entry, looked up): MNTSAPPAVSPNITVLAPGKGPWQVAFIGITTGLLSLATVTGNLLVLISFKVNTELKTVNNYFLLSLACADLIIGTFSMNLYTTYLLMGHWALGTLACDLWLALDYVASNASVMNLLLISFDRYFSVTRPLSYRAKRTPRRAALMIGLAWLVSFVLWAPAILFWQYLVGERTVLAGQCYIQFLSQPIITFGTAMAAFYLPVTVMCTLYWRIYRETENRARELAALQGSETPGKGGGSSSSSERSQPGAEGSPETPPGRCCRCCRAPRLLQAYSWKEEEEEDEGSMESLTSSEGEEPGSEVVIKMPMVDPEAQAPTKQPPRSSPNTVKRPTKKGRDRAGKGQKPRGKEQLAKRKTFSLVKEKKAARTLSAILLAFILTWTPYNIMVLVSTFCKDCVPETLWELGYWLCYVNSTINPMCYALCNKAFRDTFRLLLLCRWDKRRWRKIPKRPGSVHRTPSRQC
Grm5: Metabotropic glutamate receptor 5 (Grm5, Rattus norvegicus, UniProt P31424)
Sequence of UniProt P31424 (whole entry, looked up): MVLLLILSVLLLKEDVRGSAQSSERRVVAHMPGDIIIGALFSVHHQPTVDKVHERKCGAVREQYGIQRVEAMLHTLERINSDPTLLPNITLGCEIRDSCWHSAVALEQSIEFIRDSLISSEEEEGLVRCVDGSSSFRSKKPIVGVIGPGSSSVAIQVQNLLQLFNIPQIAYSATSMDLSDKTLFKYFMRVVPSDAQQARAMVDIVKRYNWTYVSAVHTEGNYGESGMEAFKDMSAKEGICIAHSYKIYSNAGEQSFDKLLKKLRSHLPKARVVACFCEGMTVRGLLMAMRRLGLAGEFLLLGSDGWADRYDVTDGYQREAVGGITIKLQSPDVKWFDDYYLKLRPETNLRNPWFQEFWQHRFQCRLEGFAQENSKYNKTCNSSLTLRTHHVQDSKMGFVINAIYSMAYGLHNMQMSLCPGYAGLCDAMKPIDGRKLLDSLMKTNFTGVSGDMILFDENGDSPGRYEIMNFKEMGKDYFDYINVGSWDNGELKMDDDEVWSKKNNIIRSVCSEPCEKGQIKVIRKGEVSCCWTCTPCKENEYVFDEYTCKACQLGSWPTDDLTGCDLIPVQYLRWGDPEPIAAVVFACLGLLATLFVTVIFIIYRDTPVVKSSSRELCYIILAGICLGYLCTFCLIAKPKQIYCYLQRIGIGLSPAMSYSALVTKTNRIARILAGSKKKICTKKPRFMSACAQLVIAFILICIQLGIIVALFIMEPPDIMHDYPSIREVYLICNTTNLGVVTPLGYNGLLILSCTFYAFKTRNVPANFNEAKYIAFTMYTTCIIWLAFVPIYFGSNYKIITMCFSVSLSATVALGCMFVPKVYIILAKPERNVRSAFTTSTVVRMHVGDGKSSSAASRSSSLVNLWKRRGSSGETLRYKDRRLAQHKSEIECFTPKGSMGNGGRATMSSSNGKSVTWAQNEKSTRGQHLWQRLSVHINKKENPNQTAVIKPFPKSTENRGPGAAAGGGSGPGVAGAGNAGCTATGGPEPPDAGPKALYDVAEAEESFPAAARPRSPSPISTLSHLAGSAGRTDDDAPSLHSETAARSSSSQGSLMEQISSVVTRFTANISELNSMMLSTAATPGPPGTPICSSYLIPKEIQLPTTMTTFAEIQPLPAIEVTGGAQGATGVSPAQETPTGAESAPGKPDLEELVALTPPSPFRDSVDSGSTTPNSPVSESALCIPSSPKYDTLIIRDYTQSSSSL
CHRM4: Muscarinic acetylcholine receptor M4 (CHRM4, Homo sapiens, UniProt P08173)
Sequence of UniProt P08173 (whole entry, looked up): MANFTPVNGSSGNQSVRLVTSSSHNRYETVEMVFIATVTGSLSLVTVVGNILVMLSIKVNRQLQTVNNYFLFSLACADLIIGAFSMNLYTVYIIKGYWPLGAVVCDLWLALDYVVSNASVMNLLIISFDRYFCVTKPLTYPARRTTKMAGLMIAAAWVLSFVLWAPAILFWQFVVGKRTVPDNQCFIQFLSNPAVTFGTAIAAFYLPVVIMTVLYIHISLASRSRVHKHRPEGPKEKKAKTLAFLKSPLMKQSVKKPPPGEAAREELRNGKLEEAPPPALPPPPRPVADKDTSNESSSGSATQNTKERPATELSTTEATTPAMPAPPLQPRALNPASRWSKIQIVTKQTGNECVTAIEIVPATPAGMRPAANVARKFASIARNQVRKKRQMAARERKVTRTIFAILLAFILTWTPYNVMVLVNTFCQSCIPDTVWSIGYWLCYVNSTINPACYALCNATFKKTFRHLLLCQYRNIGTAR
B1: side-chain stapled; chain FRTKQEARKSTGG (also: sidechain bridge or staple (positions not given here))
Sequence of UniProt P04406 (whole entry, looked up): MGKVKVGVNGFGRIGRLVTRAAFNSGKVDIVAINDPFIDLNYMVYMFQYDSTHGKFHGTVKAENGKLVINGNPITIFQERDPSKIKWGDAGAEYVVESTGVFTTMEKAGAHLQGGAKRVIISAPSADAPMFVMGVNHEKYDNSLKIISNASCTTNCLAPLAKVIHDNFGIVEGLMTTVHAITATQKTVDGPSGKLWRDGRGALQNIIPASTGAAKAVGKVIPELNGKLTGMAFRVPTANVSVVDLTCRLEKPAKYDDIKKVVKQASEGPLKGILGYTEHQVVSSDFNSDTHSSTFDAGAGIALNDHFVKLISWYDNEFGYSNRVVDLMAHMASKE
Sequence of UniProt P06401 (whole entry, looked up): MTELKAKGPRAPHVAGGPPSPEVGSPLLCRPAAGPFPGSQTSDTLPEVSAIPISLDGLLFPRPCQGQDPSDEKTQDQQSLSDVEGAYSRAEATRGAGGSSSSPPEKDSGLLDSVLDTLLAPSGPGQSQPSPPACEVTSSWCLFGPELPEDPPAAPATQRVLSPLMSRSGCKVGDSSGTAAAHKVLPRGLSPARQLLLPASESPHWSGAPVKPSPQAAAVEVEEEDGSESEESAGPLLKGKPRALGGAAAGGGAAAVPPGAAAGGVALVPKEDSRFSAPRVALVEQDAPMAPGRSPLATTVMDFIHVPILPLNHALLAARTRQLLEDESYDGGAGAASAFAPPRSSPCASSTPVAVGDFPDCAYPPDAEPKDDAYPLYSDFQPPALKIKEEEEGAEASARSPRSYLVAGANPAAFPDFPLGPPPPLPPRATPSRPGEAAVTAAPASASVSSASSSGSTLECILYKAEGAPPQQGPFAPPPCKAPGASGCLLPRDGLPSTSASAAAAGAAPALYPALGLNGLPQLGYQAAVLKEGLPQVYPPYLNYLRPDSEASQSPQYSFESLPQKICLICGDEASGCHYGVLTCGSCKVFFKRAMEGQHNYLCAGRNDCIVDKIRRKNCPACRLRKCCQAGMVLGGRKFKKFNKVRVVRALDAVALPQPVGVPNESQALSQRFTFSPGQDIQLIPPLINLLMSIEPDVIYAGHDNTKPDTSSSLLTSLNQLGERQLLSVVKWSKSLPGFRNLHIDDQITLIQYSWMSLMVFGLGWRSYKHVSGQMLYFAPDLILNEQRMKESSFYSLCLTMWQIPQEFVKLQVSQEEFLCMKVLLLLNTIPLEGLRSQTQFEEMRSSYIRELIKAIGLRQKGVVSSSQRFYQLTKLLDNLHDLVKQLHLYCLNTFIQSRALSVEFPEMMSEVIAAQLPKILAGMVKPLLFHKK
Sequence of UniProt C7FF04 (whole entry, looked up): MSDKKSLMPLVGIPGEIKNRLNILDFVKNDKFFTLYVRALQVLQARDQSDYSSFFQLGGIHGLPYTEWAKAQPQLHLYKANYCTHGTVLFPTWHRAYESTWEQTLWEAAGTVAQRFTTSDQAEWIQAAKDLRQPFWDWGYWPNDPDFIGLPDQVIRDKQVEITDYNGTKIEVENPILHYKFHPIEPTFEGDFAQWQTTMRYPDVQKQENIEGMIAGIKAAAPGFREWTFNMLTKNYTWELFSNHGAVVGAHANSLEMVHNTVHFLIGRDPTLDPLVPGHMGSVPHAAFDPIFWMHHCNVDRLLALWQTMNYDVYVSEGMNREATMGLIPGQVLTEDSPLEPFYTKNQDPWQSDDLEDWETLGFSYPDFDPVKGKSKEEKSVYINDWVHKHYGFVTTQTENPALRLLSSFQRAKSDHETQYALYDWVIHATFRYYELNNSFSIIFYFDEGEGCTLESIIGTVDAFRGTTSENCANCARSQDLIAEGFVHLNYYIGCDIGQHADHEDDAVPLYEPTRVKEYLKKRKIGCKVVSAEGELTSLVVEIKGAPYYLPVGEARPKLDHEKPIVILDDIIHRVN
Sequence of UniProt Q92731 (whole entry, looked up): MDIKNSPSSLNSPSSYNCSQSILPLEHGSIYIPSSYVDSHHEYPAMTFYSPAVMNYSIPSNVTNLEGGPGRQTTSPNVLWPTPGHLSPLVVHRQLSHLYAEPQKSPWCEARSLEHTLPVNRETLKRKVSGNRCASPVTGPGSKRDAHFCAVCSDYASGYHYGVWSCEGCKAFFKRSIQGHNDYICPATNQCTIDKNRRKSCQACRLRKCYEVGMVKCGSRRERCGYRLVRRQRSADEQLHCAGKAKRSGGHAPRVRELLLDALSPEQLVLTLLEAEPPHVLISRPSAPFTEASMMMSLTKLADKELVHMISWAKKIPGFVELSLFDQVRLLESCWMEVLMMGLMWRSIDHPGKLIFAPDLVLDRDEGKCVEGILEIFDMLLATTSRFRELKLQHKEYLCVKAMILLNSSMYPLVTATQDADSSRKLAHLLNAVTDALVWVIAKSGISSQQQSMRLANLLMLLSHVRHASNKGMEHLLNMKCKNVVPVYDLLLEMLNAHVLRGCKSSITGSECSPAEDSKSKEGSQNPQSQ
Sequence of UniProt P03958 (whole entry, looked up): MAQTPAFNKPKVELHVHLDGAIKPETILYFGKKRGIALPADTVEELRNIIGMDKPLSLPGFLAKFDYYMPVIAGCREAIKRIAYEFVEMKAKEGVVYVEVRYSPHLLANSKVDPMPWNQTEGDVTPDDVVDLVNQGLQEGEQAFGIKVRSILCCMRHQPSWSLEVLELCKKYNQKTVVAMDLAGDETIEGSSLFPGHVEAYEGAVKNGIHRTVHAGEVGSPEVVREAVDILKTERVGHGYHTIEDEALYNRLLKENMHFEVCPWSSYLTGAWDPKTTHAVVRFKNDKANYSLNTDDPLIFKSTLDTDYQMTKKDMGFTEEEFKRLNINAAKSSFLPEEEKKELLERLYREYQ

Substance	target	test	test system	conditions	how to read	endpoint	value
Ic1ccc2[nH]ccc2c1	Dehaloperoxidase B, ferric (Amphitrite ornata, UniProt Q9NAV7)	substrate, HPLC	5% methanol	5 min, pH 7, 25 °C, enzyme 10 µM, with: H2O2 500 µM		conversion	34%
SLFFSAQPFEITAST	H2-Aa/H2-Ab1 (Mus musculus, UniProt P14434+P14483)	MHC class II binding, competitive radioligand binding	peptide	concentration not given		binding	binds
COc1ccc(C(C)=O)c(OCc2cn(Cc3cc(=O)c(O)co3)nn2)c1	PPO3 (Agaricus bisporus, UniProt C7FF04)	inhibitor, Lineweaver-Burk replot	mushroom	with: L-DOPA substrate		Kis	0.849 µM
Nc1ncnc2c1nc(Br)n2[C@@H]1O[C@@H]2COP(=O)(O)O[C@H]2[C@H]1O	cAMP-dependent protein kinase type II-beta regulatory subunit, holoenzyme with catalytic subunit (Prkar2b, Rattus norvegicus, UniProt P12369, S112A)	PKA holoenzyme activation, activator, fluorescence anisotropy			baseline: RIIβ over RIα, higher = RIIβ-selective	selectivity ratio	0.4
Oc1ccc(/C=C/c2cccc(O)c2)cc1	Delta-type opioid receptor (OPRD1, Homo sapiens, UniProt P41143)	ligand, radioligand binding		10 µM, 60 min, with: [3H]enkephalin	negative = increased radioligand binding	binding	64.2%
CCCn1cc(-c2ccc(COc3ccccc3-c3cc(=O)n(C4CCCCC4O)cn3)cc2)cn1 (stereo not shown)	CHRM1	positive allosteric modulator, IP1 accumulation	CHO-M1 cells	1 µM, 60 min, 37 °C, with: ACh	baseline: ACh alone, higher = stronger potentiation	ΔpEC50 of ACh	1.49 ± 0.16 log units
CCCCOc1ccc(C(=O)Nc2ccccc2F)cc1	Grm5	calcium mobilization, positive allosteric modulator	HEK293	concentration not given, with: EC20 glutamate	baseline: maximal glutamate response	potentiation	84%
CCOc1ccccc1-c1nc(Nc2nc3ccccc3o2)ncc1C#N	Grm5	calcium mobilization, negative allosteric modulator		with: glutamate EC80	baseline: maximal glutamate response	maximal response	4.5 ± 0.9%
NASC	Glyceraldehyde-3-phosphate dehydrogenase (GAPDH, Homo sapiens, UniProt P04406)	spectrophotometric Vmax	peptide	10 µM, with: enzyme 10 nM	baseline: vehicle	enzyme activity	96.5 ± 6.15%
O=c1cc(-c2ccccc2OCc2ccc(Cl)nc2)ncn1C1CCCCC1O (stereo not shown)	CHRM1	positive allosteric modulator, IP1 accumulation	CHO-M1 cells	1 µM, 60 min, 37 °C, with: ACh	baseline: ACh alone, higher = stronger potentiation	ΔpEC50 of ACh	0.56 ± 0.08 log units
O=c1cc(N2CCOCC2)oc2c(OCc3ccccc3)cccc12	Phosphatidylinositol 4,5-bisphosphate 3-kinase catalytic subunit alpha isoform (PIK3CA, Homo sapiens, UniProt P42336, H855E)	enzyme activity		concentration not given, His-Glu swap	baseline: wild type	fold change in selectivity	4
CS(=O)(=O)c1ccc(COc2ccccc2-c2cc(=O)n(C3CCCCC3O)cn2)cc1 (stereo not shown)	CHRM1	allosteric agonist, IP1 accumulation	CHO-M1 cells	1 µM, unit not given	baseline: maximum ACh response	change in baseline activity	11 ± 2.7
Nc1ncnc2c1ncn2[C@@H]1O[C@H](CO)C[C@H]1O	Adenosine deaminase (Mus musculus, UniProt P03958)	substrate	mouse erythrocytes	30 min, 37 °C		Vmax	12.1 nmol/min/mg
CNCCCOc1cc(F)c(-c2c(Cl)nc3ncnn3c2N[C@@H](C)C(F)(F)F)c(F)c1	Tubulin beta chain/TUBA1B, with eribulin (Sus scrofa, UniProt P02554+Q2XVP4)			concentration not given, tubulin 20 µM, with: eribulin		bound compound	20 µM
NS(=O)(=O)c1ccc(N2N=C(C(F)(F)F)C[C@H]2c2ccc(F)cc2F)cc1	Cyclooxygenase-2 (Canis lupus familiaris, UniProt Q8SPQ9)	PGE2 formation, inhibitor	dog whole blood	24 h, with: LPS		IC20	2400 nM
CCN(c1ccccc1Cl)S(=O)(=O)C1CC2OC1C(c1ccc(O)cc1)=C2c1ccc(O)cc1 (stereo not shown)	Estrogen receptor beta (ESR2, Homo sapiens, UniProt Q92731)	reporter gene, antagonist	HepG2	with: estradiol 10 nM	baseline: E2 response, negative is inverse agonism	efficacy	3 ± 3%
CN(C)S(=O)(=O)c1ccc(COc2ccccc2-c2cc(=O)n(C3CCCCC3O)cn2)cc1 (stereo not shown)	CHRM1	positive allosteric modulator, IP1 accumulation	CHO-M1 cells	10 µM, 60 min, 37 °C, with: ACh	baseline: ACh alone, higher = stronger potentiation	ΔpEC50 of ACh	0.65 ± 0.09 log units
COC(=O)c1scc(C)c1NC(=O)C(C)N1C(C)COCC1C (stereo not shown)	Sodium channel protein type 10 subunit alpha (SCN10A, Homo sapiens, UniProt Q9Y5Y9)	cell membrane chromatography			higher = stronger binding	capacity factor k′	12
O=C(Nc1nc2cccnc2s1)c1cccnn1	CHRM4	calcium mobilization, positive allosteric modulator	CHO expressing hM4 and Gqi5	concentration not given, with: acetylcholine EC20		activity	inactive
CC(C)n1cc(-c2ccc(COc3ccccc3-c3cc(=O)n(C4CCCCC4O)cn3)cc2)cn1 (stereo not shown)	CHRM1	positive allosteric modulator, IP1 accumulation	CHO-M1 cells	10 µM, 60 min, 37 °C, with: ACh	baseline: ACh alone, higher = stronger potentiation	ΔpEC50 of ACh	1.71 ± 0.33 log units
B1	Histone-lysine N-methyltransferase SETD7 (SETD7, Homo sapiens, UniProt Q8WTS6)	peptide methylation, substrate, MALDI-TOF MS		10 µM, 3 h, pH 8.0, 37 °C, enzyme 500 nM, with: SAM 30 µM		methylation conversion	≥ 90%
O=c1cc(-c2ccccc2OCc2ccc(-c3cn[nH]c3)cc2)ncn1C1CCCCC1O (stereo not shown)	CHRM1	allosteric agonist, IP1 accumulation	CHO-M1 cells	1 µM, unit not given	baseline: maximum ACh response	change in baseline activity	54.5 ± 3.1
COc1ccc(C)c2sc(NC(=O)CCc3ccccc3)nc12	CHRM4	calcium mobilization, positive allosteric modulator	CHO expressing hM4 and Gqi5	concentration not given, with: acetylcholine EC20		activity	inactive
O=c1cc(-c2ccccc2OCc2ccc(-c3ncco3)cc2)ncn1C1CCCCC1O (stereo not shown)	CHRM1	positive allosteric modulator, IP1 accumulation	CHO-M1 cells	1 µM, 60 min, 37 °C, with: ACh	baseline: ACh alone, higher = stronger potentiation	ΔpEC50 of ACh	0.96 ± 0.13 log units
Cn1c(=O)c2[nH]c(Cc3ccccc3)nc2n(C)c1=O	Progesterone receptor (PGR, Homo sapiens, UniProt P06401)	reporter gene, antagonist, MMTV-luciferase	T47D/A1-2	10 µM, 24 h, with: 5 nM progesterone	baseline: maximal activity	remaining activity	144%

Repeated from above:
Substance	target	test	test system	conditions	how to read	endpoint	value
CS(=O)(=O)c1ccc(COc2ccccc2-c2cc(=O)n(C3CCCCC3O)cn2)cc1 (stereo not shown)	CHRM1	allosteric agonist, IP1 accumulation	CHO-M1 cells	1 µM, unit not given	baseline: maximum ACh response	change in baseline activity	11 ± 2.7
Nc1ncnc2c1ncn2[C@@H]1O[C@H](CO)C[C@H]1O	Adenosine deaminase (Mus musculus, UniProt P03958)	substrate	mouse erythrocytes	30 min, 37 °C		Vmax	12.1 nmol/min/mg
